# Measured values of several laboratories.
# A part holds a random share of what one study measured. Changes are numbered by the printed parent chain.
# Sequence of UniProt Q9C0B0 (30-357, looked up): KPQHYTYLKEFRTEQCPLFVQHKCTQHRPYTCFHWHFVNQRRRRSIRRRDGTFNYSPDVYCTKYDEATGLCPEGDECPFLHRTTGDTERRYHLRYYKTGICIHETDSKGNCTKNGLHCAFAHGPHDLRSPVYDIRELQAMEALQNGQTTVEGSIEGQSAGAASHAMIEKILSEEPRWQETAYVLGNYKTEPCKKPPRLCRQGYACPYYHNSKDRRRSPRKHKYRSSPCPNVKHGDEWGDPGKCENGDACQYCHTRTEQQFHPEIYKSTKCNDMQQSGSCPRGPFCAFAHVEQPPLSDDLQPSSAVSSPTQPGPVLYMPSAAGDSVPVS

# Study 1 — method: protein binding microarray; form: double-stranded DNA, one strand shown; sample: in vitro; concentration: not given; baseline: not given; direction: higher = stronger binding
# Target: Histone acetyltransferase KAT6A, winged helix 2, GST fusion (KAT6A, Homo sapiens, UniProt Q92794, residues 85-181)
# Notes: 8-mer, flanks averaged, mean of 2 arrays, mostly near background
# Target sequence (chain): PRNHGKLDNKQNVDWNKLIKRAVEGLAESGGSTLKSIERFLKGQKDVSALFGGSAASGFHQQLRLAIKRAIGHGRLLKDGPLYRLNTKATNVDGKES
Sequence,E-score
ACACATGA,-0.153
AAATTCCT,-0.0615
GAACGACC,-0.116
ATTATAAC,-0.0203
GCGAAATA,0.0806
AGGGTCGG,0.157
GAATATAA,-0.0698
AAAGGCTA,-0.0806
CGATATAG,0.0698
GTATCCCA,0.0382
CGGTCTAG,-0.103
CGGCGAAG,0.104
CTTAAAGC,0.0852
ATCCTTCG,-0.0306
AAGTGGCG,0.0174
AGCACGAA,0.0565
AAGTCTTA,-0.247
GCCATCAA,-0.198
GCTATCTA,-0.0063
GTGAGTGA,-0.119
GGGGGCAC,0.0456
CCGTTCTC,-0.0952

# Study 2 — method: DHFR PCA, deep sequencing; sample: yeast; with: (+)-ABA 2500 µM; baseline: wild-type fitted maximum; direction: higher = stronger binding
# Target: ABI1, truncated, D143A, DHFR fusion (Arabidopsis thaliana)
# Notes: methotrexate growth selection, single substitutions
# Parent: PYL1, truncated, DHFR fusion (Arabidopsis thaliana); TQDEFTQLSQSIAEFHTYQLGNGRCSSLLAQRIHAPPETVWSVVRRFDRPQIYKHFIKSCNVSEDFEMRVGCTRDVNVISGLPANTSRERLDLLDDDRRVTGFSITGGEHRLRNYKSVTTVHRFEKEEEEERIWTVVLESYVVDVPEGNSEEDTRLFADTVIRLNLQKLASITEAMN; partner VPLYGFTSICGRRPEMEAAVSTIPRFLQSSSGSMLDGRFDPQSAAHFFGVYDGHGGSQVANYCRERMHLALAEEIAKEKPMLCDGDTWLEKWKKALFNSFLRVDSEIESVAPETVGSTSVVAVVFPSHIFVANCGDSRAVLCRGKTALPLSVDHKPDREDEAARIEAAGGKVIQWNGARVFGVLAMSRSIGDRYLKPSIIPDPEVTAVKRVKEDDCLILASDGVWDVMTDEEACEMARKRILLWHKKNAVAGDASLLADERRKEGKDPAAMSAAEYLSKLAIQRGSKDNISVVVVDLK
Change,relative binding score [%]
N77F,96.1
R123N,108
R163N,90.7
E127Q,105
E129M,102
L8S,93.3
A35V,92
T120K,28
K126W,101
G102L,16.5
Q19V,99.8
E128N,106
I133S,104
S104E,88.3
K54Y,-8.02
L8F,114
N22D,103
D153N,80.1
L94K,72.5
H34I,102
T39W,93.6
E64M,92.1
Q10W,90.6
E109P,85.5
L20P,94.5

# Study 3 — method: aptamer microarray, sandwich; form: DNA with 2'F-ANA; sample: in vitro; concentration: 200 nM; with: Cy3 exosite-II aptamer, 400 nM; direction: higher = stronger binding; sequence: GGTTGGTGTGGTTGG
# Target: Prothrombin, mature alpha-thrombin (F2, Homo sapiens, UniProt P00734)
# Notes: whole 15-mer aptamer, many near background
Modification,mean fluorescence intensity [a.u.]
2'F-ANA at 1 3 4 9 10 11 12 13 14,51.3
2'F-ANA at 2 3 5 6 8 11 12 15,166
2'F-ANA at 3 5 6 9 10 11 12,61.3
2'F-ANA at 1 2 3 5 6 10 11 13 14 15,50.7
2'F-ANA at 1 2 3 6 7 10 11 13,70.6
2'F-ANA at 1 2 3 5 9 11 12 13 14 15,96.3
2'F-ANA at 1 2 3 5 6 7 8 11 12 13 14 15,47.7
2'F-ANA at 1 2 5 7 8 13 15,54.4
2'F-ANA at 2 5 8 9 13,63.8
2'F-ANA at 2 3 5 6 7 8 9 10 11 13 15,52.6
2'F-ANA at 3 6 8 10 11 13,440
2'F-ANA at 1 2 3 4 5 6 7 12 13 15,76.6
2'F-ANA at 1 2 3 5 6 9 10 12 14 15,49
2'F-ANA at 1 4 5 6 7 9 10 11 14,50.1
2'F-ANA at 3 4 7 8 9 11 14,416
2'F-ANA at 1 2 4 5 11 13 15,53.4
2'F-ANA at 2 3 4 5 6 7 8 9 13 14 15,52.4
2'F-ANA at 1 3 7 9 10 13 14 15,55.9
2'F-ANA at 1 3 4 8 12 14 15,115
2'F-ANA at 1 3 4 5 6 7 12,141
2'F-ANA at 2 3 8 9 13 15,707
2'F-ANA at 1 2 3 10 11 12 14 15,66
2'F-ANA at 1 3 4 5 11 12 14,43.7
2'F-ANA at 5 6 7 10 11 12 13 15,67.8
2'F-ANA at 1 4 5 6 7 9 10 11 14 15,52.9

# Study 4 — method: RNA Bind-n-Seq; form: RNA; sample: in vitro; concentration: 365 nM; baseline: no-protein control; direction: higher = stronger binding
# Target: RNA binding protein fox-1 homolog 2, RRM domain, GST-SBP tag (RBFOX2, Homo sapiens, UniProt O43251-10, residues 100-194)
# Notes: natural RNA segment, single round, ends assumed
# Constant ends, left off below: GGGAGUUCUACAGUCCGACGAUC … UGGAAUUCUCGGGUGCCAA
# Target sequence (chain): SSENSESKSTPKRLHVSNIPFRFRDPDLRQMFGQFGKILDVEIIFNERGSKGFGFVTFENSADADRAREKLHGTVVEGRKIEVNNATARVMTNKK
Sequence,RBNS enrichment (R)
UUUCUCCCUCACAUCAGGAGGUAGAUAGCUCUGAAAUGACAGCGCCACAGCCAUAGUGACUGCAUGAGCCAUCUGAACCUGCAGUCCACCCUCCCUGGAACCACACCAGA,0.262
CAUCACACUGAACAGGAUGUGGCCUGCUGACAGUGAGUAGCUGAAGUGCCUGUUUGGUAAGUAGGUUAGCAUUCAUCAUGAACUCUGAAAGCCAUUUCAGAGUUUGGCUG,0.396
GAUUAAGAGAGAGUAAUAUUAAUUGUGCAUGUGCAGUUGUAUUUCUCAUUAACUGACAGUAUGCCCAUUUGUUUUUAUGGCUUUCUUAUCUAAACUGCACUGAUGAACUA,4.31
GGUUAUUGACCUCCUGGGUCCUACUCCACCCUAUCACCUACCCCCGUGACCCCCGGGAUCCCGCCGGUUUUUUCCCCUCCUGGGGGCUCAUGGGGGAGAAUUCCCAGCUC,0.537
CGCUGUGUCCAGAUGUUGGAAUGGUUUGAGCAUCAUGGUCACAUUUGCAUUGUUUUUGAACUAUUGGGACUUAGUACUUACGACUUCAUUAAAGAAAAUGGUUUUCUACC,5.49
UAGACAGUUCCAGGUCUCAGCUUCCUGUCCUCUAGUUCUGCUGUUCGGGCAUAAAAUCUUUAUCUCCAGUUCAUAUAAUCUUGAGUUUUAGAUAUACACACAUGCGUAAC,0.301
GGUUGAGGGGACACUUUGACCCUCCAAGGUAACAGCCAGUCAGAUGGCUUGAGGUGCCUGGCCCAUGCUGCCGGCUAAAUGCCAUCCAGUGUGCCCAGCAGUUUCAGACC,0.19
GAGAAUAUAUAUUGUACUGUAGUAAUUUUGUAUUUACAUUUGUAUGAUGUGACAUAAUAGAUGUGAAUGUUAAUCACUGCUUGACUAUGUUAAUAAAGUUGUUUAACUAU,0.379
UUAUAUUCCUUUUCCCAGGAAAGAAGCAUUUCUGAUACUUUCUGUCAAAAAUCAAUAUGCAGAAUGGAUUUGCAAUAAAAGGUUUCCUAAAAUGGUCCUUUGUGCGUGGC,0.462
AUUAGGAUUUUCUGUUUUAUAGUAAAUAGUUGGUAUUUGGUAGUCCACAAUUAAAGUCAUUGCAUUAAUUUUACAAAUUAUAGAUUUAGAAAUGAUUCUUAAGUUAUUGG,0.569
GGAAGCAUUUCUUCAUUGAUUUAAAUCAGUAUGAAUAUUAUAUGCCUAAAUAAAAAAUUUGCACAGGUAAAUUCUCUCACUUGUGAAUGGGAGAAGCUGCCCCAGGAAUC,1.29
UAGCAAGCAGAGUAUCAUUCAUGCUGGGGCCAGAAUGAUGGCCGGUUGCCAGAUAUAACUGCUUUGGAGCAAAUCUCUUCUGUUUAGAGAGAUAGAAGUUAUGACAUAUG,0.324

# Single results of other studies
Sequence,target,assay,test system,conditions,how to read,quantity,result
GGGAGUUCUACAGUCCGACGAUCGGUUGAUGUUCUGAAGAACCACUUGGUGAAAGAAGGUCGAGCCGAUGAAGAAAUUGCGCUCCGAAUUAUCAAUGAGGGUGCUGCCAUCCUUCGGAGAGAGAAAACCAUGACCGAAGCCGACAACAGAGGAUUGAGCAUCA,"RING finger protein unkempt homolog, zinc fingers 1-6, SBP tag (UNK, Homo sapiens, UniProt Q9C0B0, residues 30-357)",RNA Bind-n-Seq,"RNA, in vitro","100 nM, RNA with constant flanks, ends assumed","baseline: input RNA pool, higher = stronger binding",bound/input enrichment,0.139 ratio

# Excerpt of the above (study 3):
Modification,mean fluorescence intensity [a.u.]
2'F-ANA at 1 2 3 5 6 9 10 12 14 15,49
2'F-ANA at 1 4 5 6 7 9 10 11 14,50.1
2'F-ANA at 3 4 7 8 9 11 14,416
2'F-ANA at 1 2 4 5 11 13 15,53.4
2'F-ANA at 2 3 4 5 6 7 8 9 13 14 15,52.4
2'F-ANA at 1 3 7 9 10 13 14 15,55.9
2'F-ANA at 1 3 4 8 12 14 15,115
2'F-ANA at 1 3 4 5 6 7 12,141
2'F-ANA at 2 3 8 9 13 15,707
2'F-ANA at 1 2 3 10 11 12 14 15,66
